{"data": "Results pooled from the literature", "note": "A part holds a random share of what one study measured. Values joined by “and” are separate records of one study, mostly repeats; a detail may differ. pEC50: −log10 of the molar value.", "sequence of UniProt P07949 (whole entry, unmodified, looked up)": "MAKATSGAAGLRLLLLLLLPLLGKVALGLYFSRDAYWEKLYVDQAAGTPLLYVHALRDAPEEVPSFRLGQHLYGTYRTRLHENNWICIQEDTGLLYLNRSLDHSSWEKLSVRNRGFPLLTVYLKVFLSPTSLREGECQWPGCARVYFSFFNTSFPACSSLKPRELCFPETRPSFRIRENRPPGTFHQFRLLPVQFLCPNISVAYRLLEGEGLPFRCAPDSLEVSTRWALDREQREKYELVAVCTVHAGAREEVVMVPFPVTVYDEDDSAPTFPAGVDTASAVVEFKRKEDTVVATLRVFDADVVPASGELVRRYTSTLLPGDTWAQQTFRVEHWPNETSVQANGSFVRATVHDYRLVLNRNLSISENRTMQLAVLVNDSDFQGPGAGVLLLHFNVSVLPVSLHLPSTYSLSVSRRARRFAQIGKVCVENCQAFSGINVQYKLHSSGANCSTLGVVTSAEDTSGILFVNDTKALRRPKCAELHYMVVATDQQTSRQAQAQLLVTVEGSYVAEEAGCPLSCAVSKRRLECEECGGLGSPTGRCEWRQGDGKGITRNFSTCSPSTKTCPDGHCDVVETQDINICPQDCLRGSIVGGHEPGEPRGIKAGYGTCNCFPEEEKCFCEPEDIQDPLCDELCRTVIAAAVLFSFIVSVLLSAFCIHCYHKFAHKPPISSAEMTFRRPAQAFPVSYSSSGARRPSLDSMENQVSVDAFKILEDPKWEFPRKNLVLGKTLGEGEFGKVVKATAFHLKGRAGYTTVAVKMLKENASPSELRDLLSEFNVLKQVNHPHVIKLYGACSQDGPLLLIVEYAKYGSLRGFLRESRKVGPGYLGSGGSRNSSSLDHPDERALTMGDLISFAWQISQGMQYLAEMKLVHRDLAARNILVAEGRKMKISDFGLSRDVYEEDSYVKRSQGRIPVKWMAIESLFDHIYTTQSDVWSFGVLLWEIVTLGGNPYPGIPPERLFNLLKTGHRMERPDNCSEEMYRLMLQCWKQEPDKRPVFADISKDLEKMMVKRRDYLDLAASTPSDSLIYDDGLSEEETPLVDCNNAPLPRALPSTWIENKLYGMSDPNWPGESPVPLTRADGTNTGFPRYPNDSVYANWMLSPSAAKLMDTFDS", "sequence of UniProt Q00526 (whole entry, looked up)": "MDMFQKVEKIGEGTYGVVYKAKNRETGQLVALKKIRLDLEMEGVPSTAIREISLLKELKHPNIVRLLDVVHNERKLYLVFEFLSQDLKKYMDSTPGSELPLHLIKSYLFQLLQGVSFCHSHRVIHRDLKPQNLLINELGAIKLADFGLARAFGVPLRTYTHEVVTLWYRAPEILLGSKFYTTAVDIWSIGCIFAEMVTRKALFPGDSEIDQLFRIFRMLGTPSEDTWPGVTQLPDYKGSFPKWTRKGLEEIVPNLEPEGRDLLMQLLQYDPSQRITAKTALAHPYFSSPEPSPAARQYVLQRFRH", "sequence of UniProt Q14289 (whole entry, looked up)": "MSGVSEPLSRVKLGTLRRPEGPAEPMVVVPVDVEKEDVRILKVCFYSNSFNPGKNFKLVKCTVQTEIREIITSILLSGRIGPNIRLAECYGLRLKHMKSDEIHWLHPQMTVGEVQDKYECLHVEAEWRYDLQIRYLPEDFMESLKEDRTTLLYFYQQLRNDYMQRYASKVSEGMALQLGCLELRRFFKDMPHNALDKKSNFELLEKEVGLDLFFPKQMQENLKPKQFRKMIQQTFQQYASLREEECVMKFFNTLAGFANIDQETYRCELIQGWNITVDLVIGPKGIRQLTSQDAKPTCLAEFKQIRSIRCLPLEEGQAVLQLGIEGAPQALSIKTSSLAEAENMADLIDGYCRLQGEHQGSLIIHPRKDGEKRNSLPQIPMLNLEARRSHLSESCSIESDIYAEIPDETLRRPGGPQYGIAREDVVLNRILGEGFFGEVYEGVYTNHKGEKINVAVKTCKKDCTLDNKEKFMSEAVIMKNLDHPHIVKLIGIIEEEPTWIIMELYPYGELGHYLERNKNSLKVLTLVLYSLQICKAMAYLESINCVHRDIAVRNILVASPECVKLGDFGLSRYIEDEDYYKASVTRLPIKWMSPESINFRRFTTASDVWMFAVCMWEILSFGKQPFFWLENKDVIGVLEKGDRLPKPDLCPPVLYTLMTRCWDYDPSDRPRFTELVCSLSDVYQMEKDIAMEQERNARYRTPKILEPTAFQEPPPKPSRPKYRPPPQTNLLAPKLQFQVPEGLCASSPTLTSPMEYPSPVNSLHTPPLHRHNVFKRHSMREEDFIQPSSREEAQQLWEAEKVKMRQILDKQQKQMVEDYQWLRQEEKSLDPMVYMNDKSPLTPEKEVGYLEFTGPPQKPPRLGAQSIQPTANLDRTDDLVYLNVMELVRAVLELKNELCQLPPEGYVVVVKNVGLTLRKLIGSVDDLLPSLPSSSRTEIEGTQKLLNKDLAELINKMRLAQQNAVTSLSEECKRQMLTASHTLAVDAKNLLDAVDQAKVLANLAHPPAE", "sequence of UniProt P28482 (whole entry, looked up)": "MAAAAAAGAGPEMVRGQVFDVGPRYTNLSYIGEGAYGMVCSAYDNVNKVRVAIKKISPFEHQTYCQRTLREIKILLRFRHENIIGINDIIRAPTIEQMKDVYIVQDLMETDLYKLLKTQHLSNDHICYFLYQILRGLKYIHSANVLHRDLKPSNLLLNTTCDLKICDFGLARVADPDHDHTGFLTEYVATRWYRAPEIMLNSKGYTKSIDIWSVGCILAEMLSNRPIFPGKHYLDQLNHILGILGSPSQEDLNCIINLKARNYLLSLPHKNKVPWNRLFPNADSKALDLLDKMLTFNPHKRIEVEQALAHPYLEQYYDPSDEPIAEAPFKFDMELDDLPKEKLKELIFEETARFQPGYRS", "sequence of UniProt Q02750 (whole entry, looked up)": "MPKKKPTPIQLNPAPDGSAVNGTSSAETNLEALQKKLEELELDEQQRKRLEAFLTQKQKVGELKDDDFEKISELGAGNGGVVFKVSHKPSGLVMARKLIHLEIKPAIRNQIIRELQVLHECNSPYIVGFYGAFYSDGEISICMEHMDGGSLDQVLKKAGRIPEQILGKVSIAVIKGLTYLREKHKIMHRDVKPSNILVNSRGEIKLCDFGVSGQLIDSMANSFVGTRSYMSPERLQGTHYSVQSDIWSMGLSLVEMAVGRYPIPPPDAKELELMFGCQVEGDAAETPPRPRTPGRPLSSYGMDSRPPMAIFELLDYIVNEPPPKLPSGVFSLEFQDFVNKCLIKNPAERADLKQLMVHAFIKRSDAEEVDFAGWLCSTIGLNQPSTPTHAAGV", "sequence of UniProt O96013 (whole entry, looked up)": "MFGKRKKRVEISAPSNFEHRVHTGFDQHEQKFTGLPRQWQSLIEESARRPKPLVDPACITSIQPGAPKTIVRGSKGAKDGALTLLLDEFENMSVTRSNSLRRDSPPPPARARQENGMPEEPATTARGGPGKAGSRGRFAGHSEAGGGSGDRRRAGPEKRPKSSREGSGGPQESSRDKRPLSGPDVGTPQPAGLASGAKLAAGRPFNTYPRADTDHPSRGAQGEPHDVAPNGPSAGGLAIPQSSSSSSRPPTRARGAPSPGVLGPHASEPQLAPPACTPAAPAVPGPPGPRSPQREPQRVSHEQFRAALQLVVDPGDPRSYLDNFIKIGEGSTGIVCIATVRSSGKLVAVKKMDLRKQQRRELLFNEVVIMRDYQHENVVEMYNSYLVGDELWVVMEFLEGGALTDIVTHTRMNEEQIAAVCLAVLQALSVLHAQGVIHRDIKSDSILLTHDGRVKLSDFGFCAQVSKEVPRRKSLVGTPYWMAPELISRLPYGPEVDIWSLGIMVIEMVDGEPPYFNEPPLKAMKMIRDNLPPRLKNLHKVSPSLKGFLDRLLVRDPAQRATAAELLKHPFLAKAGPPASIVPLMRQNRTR"}
{"data": "Sample 1", "cell line": "Gaucher fibroblasts L444P/L444P", "method": "4-MUG hydrolysis, cell lysate", "tested at": "1 µM", "baseline": "DMSO"}
{"Compound": "Ic1ccc(Nc2nc(NCCCN3CCOCC3)nc(N3CCOCC3)n2)cc1", "GCase activity": "141% and 152% and 148% and 173% and 163%"}
{"Compound": "Cc1ccc(Nc2nc(NCCN3CCOCC3)nc(N3CCOCC3)n2)cc1", "GCase activity": "99.5% and 112% and 107% and 114% and 109% and 101%"}
{"Compound": "Ic1ccc(Nc2nc(N3CCOCC3)nc(N3CCOCC3)n2)cc1", "GCase activity": "186% and 134% and 174% and 146% and 190%"}
{"Compound": "Ic1ccc(Nc2nc(NCCN3CCOCC3)nc(N3CCNCC3)n2)cc1", "GCase activity": "106% and 108% and 111% and 104% and 102% and 114%"}
{"Compound": "CCN(CC)c1nc(NCCN2CCOCC2)nc(Nc2ccc(I)cc2)n1", "GCase activity": "95.5% and 88.2% and 96.1% and 106% and 91.5%"}
{"Compound": "Ic1ccc(Nc2nc(NCCN3CCOCC3)nc(N3CCCCC3)n2)cc1", "GCase activity": "99.9% and 98.2% and 93% and 101% and 100%"}
{"Compound": "CCOc1ccc2nc(Sc3nc(NCCN4CCOCC4)nc(Nc4ccc(I)cc4)n3)sc2c1", "GCase activity": "109% and 108% and 116% and 92.8%"}
{"Compound": "Ic1ccc(Nc2nc(NCCN3CCOCC3)nc(N3CCCC3)n2)cc1", "GCase activity": "100% and 110% and 90.6%"}
{"data": "Sample 2", "SMILES": "Cc1ccc(O)c(C)c1-c1cnc2[nH]c(-c3cnc(N4CCC5(CC4)CC(N4CCN(c6ccc(N[C@H]7CCC(=O)N(C)C7=O)cc6F)CC4)CO5)nc3)cc2c1C#N (single isomer, unassigned)", "PKMYT1": "Membrane-associated tyrosine- and threonine-specific cdc2-inhibitory kinase (PKMYT1, Homo sapiens, UniProt Q99640)", "sequence of UniProt Q99640 (whole entry, looked up)": "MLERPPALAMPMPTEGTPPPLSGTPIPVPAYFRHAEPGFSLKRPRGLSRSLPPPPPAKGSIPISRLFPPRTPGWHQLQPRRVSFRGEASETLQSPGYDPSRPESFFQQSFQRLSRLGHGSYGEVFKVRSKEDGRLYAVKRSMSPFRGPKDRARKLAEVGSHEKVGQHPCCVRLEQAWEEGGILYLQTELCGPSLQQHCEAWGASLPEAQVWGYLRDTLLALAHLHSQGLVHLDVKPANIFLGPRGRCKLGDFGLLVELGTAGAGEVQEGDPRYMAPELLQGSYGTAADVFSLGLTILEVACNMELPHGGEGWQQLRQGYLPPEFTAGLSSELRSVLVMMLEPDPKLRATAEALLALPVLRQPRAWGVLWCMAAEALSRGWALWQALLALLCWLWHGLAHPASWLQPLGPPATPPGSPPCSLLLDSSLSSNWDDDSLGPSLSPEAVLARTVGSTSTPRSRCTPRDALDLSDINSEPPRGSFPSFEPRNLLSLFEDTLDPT"}
{"tested on": "HCC1569", "assay": "automated capillary immunoblot, item: CDK1 phospho-Thr14", "conditions": "4.12 nM, 24 h", "inhibition": "6.7%"}
{"tested on": "HCC1569", "assay": "automated capillary immunoblot, item: CDK1 phospho-Thr14", "conditions": "0.05 nM, 24 h", "inhibition": "-3.15%"}
{"tested on": "PKMYT1", "assay": "enzyme activity, inhibitor", "conditions": "460 pM", "inhibition": "0.82% and 2.85%"}
{"tested on": "PKMYT1", "assay": "enzyme activity, inhibitor", "conditions": "1.37 nM", "inhibition": "8.93% and 12%"}
{"tested on": "HCC1569", "assay": "automated capillary immunoblot, item: CDK1 phospho-Thr14", "conditions": "37.04 nM, 24 h", "inhibition": "35.4%"}
{"data": "Sample 3", "SMILES": "O=c1[nH]c(=S)n(C[C@H]2CCCO2)c2nc[nH]c12", "effect on": "enzyme activity", "MPO": "Myeloperoxidase (MPO, Homo sapiens, UniProt P05164)", "sequence of UniProt P05164 (whole entry, looked up)": "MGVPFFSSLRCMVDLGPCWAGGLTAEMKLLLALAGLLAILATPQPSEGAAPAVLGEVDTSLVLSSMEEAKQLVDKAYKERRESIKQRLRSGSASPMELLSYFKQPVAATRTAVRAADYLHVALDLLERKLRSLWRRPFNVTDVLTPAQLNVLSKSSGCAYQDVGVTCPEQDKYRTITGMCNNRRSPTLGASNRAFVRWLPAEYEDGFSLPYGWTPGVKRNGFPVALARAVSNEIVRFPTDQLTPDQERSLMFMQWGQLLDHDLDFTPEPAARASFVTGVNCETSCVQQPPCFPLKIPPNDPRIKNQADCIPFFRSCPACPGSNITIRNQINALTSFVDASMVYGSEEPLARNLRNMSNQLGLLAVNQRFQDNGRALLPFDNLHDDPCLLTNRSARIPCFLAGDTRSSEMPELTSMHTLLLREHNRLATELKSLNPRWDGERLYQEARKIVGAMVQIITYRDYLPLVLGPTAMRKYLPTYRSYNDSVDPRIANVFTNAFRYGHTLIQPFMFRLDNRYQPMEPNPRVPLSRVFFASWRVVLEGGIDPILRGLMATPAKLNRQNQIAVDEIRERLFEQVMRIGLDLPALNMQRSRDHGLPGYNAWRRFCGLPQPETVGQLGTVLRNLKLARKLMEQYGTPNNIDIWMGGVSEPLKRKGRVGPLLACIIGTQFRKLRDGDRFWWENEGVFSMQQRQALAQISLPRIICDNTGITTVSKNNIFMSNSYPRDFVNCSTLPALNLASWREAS"}
{"target": "AOC3 (Homo sapiens, UniProt Q16853)", "assay": "Amplex Red H2O2 production", "conditions": "0.0015 µM", "inhibition": "6.58%"}
{"target": "MPO", "conditions": "15 µM", "inhibition": "99.9% and 100% and 99.6%"}
{"target": "MPO", "assay": "inhibitor, fluorescence", "conditions": "0.1235 µM", "inhibition": "56.8% and 62.4% and 58.7% and 39.4% and 75.8% and 44.1%"}
{"data": "Sample 4", "Compound": "Cc1ncsc1-c1ccc(C(CO)NC(=O)C2CC(O)CN2C(=O)C(C(C)C)n2cc(-c3ccc(COc4c(-c5c(C)c(F)cc6[nH]ncc56)c(C5CC5)cc5c(N6CC7CC6CN7)nc(OC6CCOCC6)nc45)cc3)nn2)cc1 (stereo not drawn)", "route": "intravenous"}
{"system": "male Balb/c nu/nu mouse (PK-59 xenograft), plasma", "conditions": "30 mg/kg, 24 h", "concentration": "41.7 ng/mL"}
{"system": "male Balb/c nu/nu mouse, PK-59 xenograft, plasma", "conditions": "30 mg/kg, 24 h", "concentration": "50.1 ng/mL and 77.1 ng/mL"}
{"system": "mouse (PK-59 xenograft), plasma", "conditions": "30 mg/kg, 48 h", "concentration": "16.6 ng/mL and 14.2 ng/mL"}
{"system": "male Balb/c nu/nu mouse, PK-59 xenograft, pancreas", "conditions": "30 mg/kg, 6 h", "concentration": "990 ng/g and 840 ng/g"}
{"system": "male Balb/c nu/nu mouse (PK-59 xenograft), pancreas", "conditions": "30 mg/kg, 24 h", "concentration": "437 ng/g"}
{"system": "male Balb/c nu/nu mouse, PK-59 xenograft, plasma", "conditions": "10 mg/kg, 6 h", "concentration": "278 ng/mL and 174 ng/mL"}
{"system": "male Balb/c nu/nu mouse, PK-59 xenograft, pancreas", "conditions": "30 mg/kg, 2 h", "concentration": "1830 ng/g and 1700 ng/g"}
{"system": "male Balb/c nu/nu mouse, PK-59 xenograft, pancreas", "conditions": "10 mg/kg, 24 h", "concentration": "80.7 ng/g and 58.1 ng/g"}
{"data": "Sample 5", "Structure (SMILES)": "CCN1/C(=C/C=C2\\CCCC(/C=C/C3=[N+](CC)c4ccccc4C3(C)C)=C2NCCCCCCCCN2CCC(Nc3nc4ccccc4n3Cc3ccc(F)cc3)CC2)C(C)(C)c2ccccc21", "cell line": "U-87 MG", "tested at": "concentration not given", "baseline": "DMSO"}
{"assay": "item: PRC1 mRNA", "log2 fold change": -1.84}
{"assay": "item: ACTL8 mRNA", "log2 fold change": -3.69}
{"assay": "item: ABL2 mRNA", "log2 fold change": 1.23}
{"assay": "item: NFIC mRNA", "log2 fold change": -0.969}
{"assay": "item: PASK mRNA", "log2 fold change": -1.44}
{"assay": "item: C6orf141 mRNA", "log2 fold change": -1.27}
{"assay": "item: GPR19 mRNA", "log2 fold change": -1.52}
{"assay": "item: DOP1B mRNA", "log2 fold change": -1.32}
{"assay": "item: TUBA1B mRNA", "log2 fold change": -2.09}
{"assay": "item: SLC16A2 mRNA", "log2 fold change": -1.27}
{"assay": "item: GEN1 mRNA", "log2 fold change": -1.46}
{"data": "Sample 6", "Compound": "COc1cc(-c2nc3ccc(C(=O)NCCCN(C)C)cc3n2C2CCC2)cc(OC)c1OC"}
{"target": "EGFR (Homo sapiens, UniProt P00533, L858R/T790M)", "assay": "binding, competition with immobilised ligand", "conditions": "1 µM", "remaining binding [%]": 61}
{"target": "CDK3 (Homo sapiens, UniProt Q00526)", "assay": "binding, competition with immobilised ligand", "conditions": "1 µM", "remaining binding [%]": 100}
{"target": "MAP3K6 (Homo sapiens, UniProt O95382)", "assay": "KINOMEscan", "conditions": "1000 nM", "remaining binding [%]": 91}
{"target": "MAPK6 (Homo sapiens, UniProt Q16659)", "assay": "binding, competition with immobilised ligand", "conditions": "1 µM", "remaining binding [%]": 84}
{"target": "Tyrosine-protein kinase ABL1, non-phosphorylated (ABL1, Homo sapiens, UniProt P00519)", "assay": "binding, competition with immobilised ligand", "conditions": "1 µM", "remaining binding [%]": 46}
{"target": "MAPK1 (Homo sapiens, UniProt P28482)", "assay": "binding, competition with immobilised ligand", "conditions": "1 µM", "remaining binding [%]": 100}
{"target": "RET (Homo sapiens, UniProt P07949, M918T)", "assay": "binding, competition with immobilised ligand", "conditions": "1 µM", "remaining binding [%]": 71}
{"target": "PIK3CA (Homo sapiens, UniProt P42336, I800L)", "assay": "binding, competition with immobilised ligand", "conditions": "1 µM", "remaining binding [%]": 79}
{"target": "PAK4 (Homo sapiens, UniProt O96013)", "assay": "binding, competition with immobilised ligand", "conditions": "1 µM", "remaining binding [%]": 91}
{"target": "FLT3 (Homo sapiens, UniProt P36888, D835Y)", "assay": "binding, competition with immobilised ligand", "conditions": "1 µM", "remaining binding [%]": 100}
{"target": "PTK2B (Homo sapiens, UniProt Q14289)", "assay": "binding, competition with immobilised ligand", "conditions": "1 µM", "remaining binding [%]": 65}
{"target": "MAP2K1 (Homo sapiens, UniProt Q02750)", "assay": "binding, competition with immobilised ligand", "conditions": "1 µM", "remaining binding [%]": 100}
{"target": "ROCK2 (Homo sapiens, UniProt O75116)", "assay": "binding, competition with immobilised ligand", "conditions": "1 µM", "remaining binding [%]": 97}
{"target": "STK3 (Homo sapiens, UniProt Q13188)", "assay": "binding, competition with immobilised ligand", "conditions": "1 µM", "remaining binding [%]": 100}
{"target": "RET (Homo sapiens, UniProt P07949)", "assay": "binding, competition with immobilised ligand", "conditions": "1 µM", "remaining binding [%]": 100}
{"target": "CSNK1E (Homo sapiens, UniProt P49674)", "assay": "binding, competition with immobilised ligand", "conditions": "1 µM", "remaining binding [%]": 100}
{"target": "SRPK3 (Homo sapiens, UniProt Q9UPE1)", "assay": "binding, competition with immobilised ligand", "conditions": "1 µM", "remaining binding [%]": 100}
{"target": "PRKCQ (Homo sapiens, UniProt Q04759)", "assay": "binding, competition with immobilised ligand", "conditions": "1 µM", "remaining binding [%]": 83}
{"target": "PRKAA1 (Homo sapiens, UniProt Q13131)", "assay": "binding, competition with immobilised ligand", "conditions": "1 µM", "remaining binding [%]": 100}
{"target": "GRK7 (Homo sapiens, UniProt Q8WTQ7)", "assay": "binding, competition with immobilised ligand", "conditions": "1 µM", "remaining binding [%]": 100}
{"target": "FLT3 (Homo sapiens, UniProt P36888, K663Q)", "assay": "binding, competition with immobilised ligand", "conditions": "1 µM", "remaining binding [%]": 70}
{"data": "Sample 7", "Structure (SMILES)": "COCC1CC2C(CCC3(C)C(O)CCC23)c2ccc(O)cc21 (stereo not drawn)", "cell line": "PANC-1", "method": "DNA microarray", "tested at": "concentration not given", "baseline": "control"}
{"assay": "item: UBD mRNA", "fold change": 0.287}
{"assay": "item: C6 mRNA", "fold change": 1}
{"assay": "item: CCL1 mRNA (probe A_23_P49759)", "fold change": 1}
{"data": "Other studies, line by line"}
{"Structure (SMILES)": "CCn1cnc2c(NCc3nc4ccc(F)c(F)c4[nH]3)nc(N3CCn4ncnc4C3)nc21", "cell line": "MDA-MB-231", "assay": "cell growth or viability", "conditions": "5 days", "quantity": "pEC50", "result": 7.02}
{"note": "Some of these lines once more (sample 4):"}
{"system": "male Balb/c nu/nu mouse (PK-59 xenograft), plasma", "conditions": "30 mg/kg, 24 h", "concentration": "41.7 ng/mL"}
{"system": "male Balb/c nu/nu mouse, PK-59 xenograft, plasma", "conditions": "30 mg/kg, 24 h", "concentration": "50.1 ng/mL and 77.1 ng/mL"}
{"system": "mouse (PK-59 xenograft), plasma", "conditions": "30 mg/kg, 48 h", "concentration": "16.6 ng/mL and 14.2 ng/mL"}
{"system": "male Balb/c nu/nu mouse, PK-59 xenograft, pancreas", "conditions": "30 mg/kg, 6 h", "concentration": "990 ng/g and 840 ng/g"}
{"system": "male Balb/c nu/nu mouse (PK-59 xenograft), pancreas", "conditions": "30 mg/kg, 24 h", "concentration": "437 ng/g"}
{"system": "male Balb/c nu/nu mouse, PK-59 xenograft, plasma", "conditions": "10 mg/kg, 6 h", "concentration": "278 ng/mL and 174 ng/mL"}
{"system": "male Balb/c nu/nu mouse, PK-59 xenograft, pancreas", "conditions": "30 mg/kg, 2 h", "concentration": "1830 ng/g and 1700 ng/g"}
{"system": "male Balb/c nu/nu mouse, PK-59 xenograft, pancreas", "conditions": "10 mg/kg, 24 h", "concentration": "80.7 ng/g and 58.1 ng/g"}
